{"data": "Experimental data from different studies", "note": "Each numbered part is a random draw from the data of one study; scales do not carry over between parts."}
{"data": "Study 1", "target": "RING finger protein unkempt homolog, zinc fingers 1-6, GST-SBP tag (UNK, Homo sapiens, UniProt Q9C0B0, residues 30-357)", "method": "RNA Bind-n-Seq", "molecule type": "RNA", "medium": "in vitro", "tested at": "not given", "setting": "RNA with constant flanks, human and mouse sites, ends assumed", "reference": "input RNA pool", "direction": "higher = stronger binding", "UniProt Q9C0B0, sequence (30-357, looked up)": "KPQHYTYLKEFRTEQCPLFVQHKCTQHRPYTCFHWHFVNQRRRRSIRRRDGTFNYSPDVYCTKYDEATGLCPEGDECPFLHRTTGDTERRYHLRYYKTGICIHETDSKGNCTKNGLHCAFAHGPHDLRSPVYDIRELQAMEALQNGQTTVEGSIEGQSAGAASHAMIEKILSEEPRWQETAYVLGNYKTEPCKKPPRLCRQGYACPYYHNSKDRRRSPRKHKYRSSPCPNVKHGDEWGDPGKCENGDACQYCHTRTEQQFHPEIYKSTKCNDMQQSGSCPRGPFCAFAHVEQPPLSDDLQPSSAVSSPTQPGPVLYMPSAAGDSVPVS"}
{"Strand": "GGGAGUUCUACAGUCCGACGAUCUUCUUCCCGAAGAGAACCACAGCCCUGCUUCUCCCUGGUAUCAUUAAAGCGGCUGCUCGCAUACUGUACGAAAGCCACGUGGAGGUGUCCCUGAUGCCUCCCUGCUUCCGAAGUGACUGUCAACAGAGGAUUGAGCAUCA", "bound/input enrichment [ratio]": 0.115}
{"Strand": "GGGAGUUCUACAGUCCGACGAUCUGUGGCAGUGCCCCGUGUUUGCUGUGCCGAUGCUGCCCCAGUGGGAACAACUCCACUGUGACUAGAUUGAUCUACGCACUUUUCUUGCUCGUCGGAGUAUGUGUAGCUUGUGUAAUGUUACAACAGAGGAUUGAGCAUCA", "bound/input enrichment [ratio]": 0.289}
{"Strand": "GGGAGUUCUACAGUCCGACGAUCGCCCGGAAAACUGUGAAAAAAAUACUUAGUGACAUUGGGUUGGAAUACUGUAAAGAACAUAUAGAAGAUUUUAAACAGUUUGAACCUAAUGACUUUUAUUUGAAAAACACUACAUGGGAGCAACAGAGGAUUGAGCAUCA", "bound/input enrichment [ratio]": 0.532}
{"data": "Study 2", "target": "Sal-like protein 4, full length isoform B (SALL4, Homo sapiens, UniProt Q9UJQ4-2, residues 1-616)", "method": "universal PBM", "molecule type": "double-stranded DNA, one strand shown", "medium": "in vitro", "tested at": "not given", "setting": "8-mer, flanks averaged, mean of replicates", "direction": "higher = stronger binding", "Residues (chain)": "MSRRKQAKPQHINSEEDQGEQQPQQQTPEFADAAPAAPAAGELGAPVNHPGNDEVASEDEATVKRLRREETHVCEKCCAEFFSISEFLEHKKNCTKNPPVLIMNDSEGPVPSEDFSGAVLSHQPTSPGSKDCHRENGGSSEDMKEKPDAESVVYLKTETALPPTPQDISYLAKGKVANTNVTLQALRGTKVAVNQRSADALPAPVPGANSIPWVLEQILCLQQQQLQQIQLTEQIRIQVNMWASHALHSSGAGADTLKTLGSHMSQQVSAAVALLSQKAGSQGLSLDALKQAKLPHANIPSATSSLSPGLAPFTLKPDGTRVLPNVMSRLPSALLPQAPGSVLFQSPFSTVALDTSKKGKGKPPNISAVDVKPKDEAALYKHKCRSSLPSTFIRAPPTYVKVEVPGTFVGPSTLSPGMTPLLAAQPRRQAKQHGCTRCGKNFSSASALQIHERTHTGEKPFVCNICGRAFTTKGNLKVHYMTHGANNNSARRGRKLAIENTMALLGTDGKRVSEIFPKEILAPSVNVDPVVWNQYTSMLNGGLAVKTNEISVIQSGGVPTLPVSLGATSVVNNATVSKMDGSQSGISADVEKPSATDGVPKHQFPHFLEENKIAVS"}
{"Strand": "CATGGCCA", "E-score": -0.0769}
{"Strand": "GGCGCAAA", "E-score": -0.185}
{"Strand": "AAAAGAGA", "E-score": 0.132}
{"Strand": "CTCATCCC", "E-score": -0.297}
{"data": "Study 3", "target": "Interferon regulatory factor 3, full length, phosphomimetic (IRF3, Homo sapiens, UniProt Q14653, residues 1-427, S386D/S396D/S398D/S402D/T404D/S405D)", "method": "protein-binding microarray", "molecule type": "double-stranded DNA, one strand shown", "medium": "in vitro", "tested at": "2540 nM top", "setting": "60-bp whole probe", "together with": "salmon DNA 0.4 mg/ml", "reference": "random background probes", "direction": "higher = stronger binding", "Construct (chain)": "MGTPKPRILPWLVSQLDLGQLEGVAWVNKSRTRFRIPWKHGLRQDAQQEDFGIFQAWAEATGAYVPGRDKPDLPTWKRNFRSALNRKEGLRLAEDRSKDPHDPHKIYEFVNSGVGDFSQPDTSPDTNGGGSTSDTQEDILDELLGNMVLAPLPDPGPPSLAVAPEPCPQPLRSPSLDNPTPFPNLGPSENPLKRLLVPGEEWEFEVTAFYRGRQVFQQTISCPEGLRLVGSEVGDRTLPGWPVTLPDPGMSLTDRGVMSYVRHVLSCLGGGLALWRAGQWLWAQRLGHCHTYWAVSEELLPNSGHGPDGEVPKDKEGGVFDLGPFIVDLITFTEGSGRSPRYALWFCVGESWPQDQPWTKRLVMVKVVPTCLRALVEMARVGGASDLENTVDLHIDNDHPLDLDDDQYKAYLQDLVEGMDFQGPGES"}
{"Strand": "GCCTAGCACTTAGGTCTCCTTCTCCTTTGGTGCTAGGTCTTGATTCGCTTGACGCTGCTG", "fitted relative affinity [z-score]": 3.98}
{"Strand": "GCCTAGCACGACGGTTTCGAATTTCGGGACGTGCTAGTCTTGATTCGCTTGACGCTGCTG", "fitted relative affinity [z-score]": 5.37}
{"Strand": "GCCTAGCACTTAGGTTTCGGAGTGGGTTAGTGCTAGGTCTTGATTCGCTTGACGCTGCTG", "fitted relative affinity [z-score]": 4.73}
{"Strand": "GCCTAGCACACAAGTTTCTCCTTTCGGAAGTGCTAGGTCTTGATTCGCTTGACGCTGCTG", "fitted relative affinity [z-score]": 3.23}
{"data": "Single results of other studies"}
{"Molecule": "PhoQ, residues 284 288 289 292 302 303 SSTLSG", "target": "PhoP, residues 12 14 15 18 19 QYCSL (Escherichia coli, UniProt P23836)", "test": "Sort-seq, refers to: YFP reporter", "system": "E. coli", "conditions": "PhoQ-PhoP variant library, together with: 10 µM Mg2+", "scale": "reference: high Mg2+ state, higher = stronger signaling", "endpoint": "fold induction", "result": 0.686}
{"note": "A few entries again (single results of other studies):"}
{"Molecule": "PhoQ, residues 284 288 289 292 302 303 SSTLSG", "target": "PhoP, residues 12 14 15 18 19 QYCSL (Escherichia coli, UniProt P23836)", "test": "Sort-seq, refers to: YFP reporter", "system": "E. coli", "conditions": "PhoQ-PhoP variant library, together with: 10 µM Mg2+", "scale": "reference: high Mg2+ state, higher = stronger signaling", "endpoint": "fold induction", "result": 0.686}
